Assay results of several laboratories.
Every numbered part comes from another study and shows a few of its results, in no order. Several values in a cell are separate wells, animals, samples, runs or records. Values after ≈ are worked out from the molar mass of the structure shown.
Chain of UniProt P35372 (whole entry, looked up): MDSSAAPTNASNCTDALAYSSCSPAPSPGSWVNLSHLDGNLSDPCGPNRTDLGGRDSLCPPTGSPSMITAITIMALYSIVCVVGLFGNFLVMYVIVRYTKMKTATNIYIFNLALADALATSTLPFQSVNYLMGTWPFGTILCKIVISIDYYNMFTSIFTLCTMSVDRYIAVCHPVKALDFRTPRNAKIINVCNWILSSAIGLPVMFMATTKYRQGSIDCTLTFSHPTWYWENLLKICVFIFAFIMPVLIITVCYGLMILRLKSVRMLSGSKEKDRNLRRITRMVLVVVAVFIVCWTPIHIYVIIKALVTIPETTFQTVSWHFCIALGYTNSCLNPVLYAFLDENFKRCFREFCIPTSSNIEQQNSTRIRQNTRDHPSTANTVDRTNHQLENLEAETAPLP
Chain of UniProt Q695T7 (whole entry, looked up): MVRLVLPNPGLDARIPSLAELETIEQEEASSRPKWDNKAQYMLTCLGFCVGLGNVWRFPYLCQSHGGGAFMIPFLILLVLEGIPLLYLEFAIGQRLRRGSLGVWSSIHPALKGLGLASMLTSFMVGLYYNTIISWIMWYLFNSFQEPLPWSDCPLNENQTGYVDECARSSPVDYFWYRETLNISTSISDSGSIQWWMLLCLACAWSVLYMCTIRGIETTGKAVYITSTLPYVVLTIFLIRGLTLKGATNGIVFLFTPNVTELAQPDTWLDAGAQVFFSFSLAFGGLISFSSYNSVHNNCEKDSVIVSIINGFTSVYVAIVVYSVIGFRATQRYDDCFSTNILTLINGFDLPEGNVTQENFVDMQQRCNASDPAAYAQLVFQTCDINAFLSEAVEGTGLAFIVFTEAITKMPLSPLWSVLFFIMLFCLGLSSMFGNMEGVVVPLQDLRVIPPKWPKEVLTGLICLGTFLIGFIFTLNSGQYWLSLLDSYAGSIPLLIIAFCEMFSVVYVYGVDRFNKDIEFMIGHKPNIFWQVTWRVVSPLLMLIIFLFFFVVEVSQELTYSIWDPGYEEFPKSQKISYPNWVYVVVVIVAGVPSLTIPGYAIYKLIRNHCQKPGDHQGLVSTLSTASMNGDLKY

Study 1
Structure (SMILES): Cn1cc(-c2cccc(CN3CCC4(CC3)COc3c4ccc4c3CN([C@H]3CCC(=O)NC3=O)C4=O)c2)cn1
Host: Crbn I391V mouse, MC-38 tumour
conditions	body weight change
oral, 30 mg/kg once daily, day 1	0%
oral, daily, 30 mg/kg, day 5, anti-PD1 combination study	3.9% and 3.1% and 1.1% and 5.3% and 3%
oral, 30 mg/kg once daily, day 10	-5% and -4% and -3.2% and -1.2% and 0%
30 mg/kg, day 8, added: anti-LAG3 antibody 10 mg/kg weekly	-3.7% and 3.1% and -4.6% and -2.5%
oral, 30 mg/kg once daily, day 7	4.4% and -2.5% and -6.1% and 12.4% and -2%

Other studies, line by line
SMILES	tested on	assay	system	conditions	scale	quantity	result
CCCCC[C@@H](O)CC(=O)N[C@H]1COC(=O)[C@H](CO)NC(=O)[C@H](Cc2ccccc2)NC(=O)[C@@H](Cc2c[nH]c3ccccc23)NC(=O)[C@@H](C(C)O)NC(=O)[C@H](CC(N)=O)NC(=O)[C@@H](C(C)C)NC(=O)[C@H](CC(C)C)NC(=O)[C@@H](Cc2ccc(O)cc2)N(C)C(=O)CNC(=O)[C@H](CO)NC(=O)[C@@H](CC(N)=O)NC1=O (stereo partly shown)	Staphylococcus aureus	–	USA300	added: ubiquinone 0 µg/mL	–	MIC	4 µg/mL (≈ 2.64 µM)
N=C(N)NCCCCCCN1CCC23c4c5ccc(O)c4OC2c2nc4ccccc4cc2CC3(O)C1C5 (stereo not shown)	Mu-type opioid receptor (OPRM1, Homo sapiens, UniProt P35372)	competitor, radioligand binding	–	1 µM	–	specific binding	12.6% and 19.3% and 25.5%
Cc1c(NC(=O)c2cccn(-c3ccc(F)cc3)c2=O)ccc(Oc2ccnc(NC(=O)C3CC3)c2)c1C	L929	CCK-8	–	50 µM, added: zVAD	–	viability	72.2% and 75.1% and 73.5% and 70.5% and 73.1%
CCCCC[C@@H]1CC(=O)N[C@@H](C(C)C)C(=O)N[C@H](CCC(=O)O)C(=O)N[C@@H](CCCNC(=N)N)C(=O)NCC(=O)N2CCC[C@H]2C(=O)N[C@@H](CC(C)C)C(=O)N[C@H](CCC(N)=O)C(=O)N[C@@H](CCC(=O)O)C(=O)N[C@H](Cc2ccc(O)cc2)C(=O)N[C@H](Cc2c[nH]c3ccccc23)C(=O)NCCCC(=O)O1	Staphylococcus aureus	–	USA300	added: ubiquinone 0 µg/mL	–	MIC	4 µg/mL (≈ 2.69 µM)
CCCNC(=O)COc1ccc(Br)c(C)c1	Sodium-dependent neutral amino acid transporter B(0)AT1 (SLC6A19, Homo sapiens, UniProt Q695T7)	inhibitor, L-[14C]leucine uptake	CHO-BC cells	0.01 µM, 6 min, 37 °C, unit not given, added: GPNA 3 mM, JPH203 3 µM	baseline: uninhibited cells	remaining transport activity	0.839

Excerpt of the above (other studies, line by line):
SMILES	tested on	assay	system	conditions	scale	quantity	result
CCCNC(=O)COc1ccc(Br)c(C)c1	Sodium-dependent neutral amino acid transporter B(0)AT1 (SLC6A19, Homo sapiens, UniProt Q695T7)	inhibitor, L-[14C]leucine uptake	CHO-BC cells	0.01 µM, 6 min, 37 °C, unit not given, added: GPNA 3 mM, JPH203 3 µM	baseline: uninhibited cells	remaining transport activity	0.839
